Assay results gathered from unrelated publications.
Numbers after ± are the reported error.

| SMILES | assay | system | setting | how to read | quantity | result |
| --- | --- | --- | --- | --- | --- | --- |
| Cn1cc(-c2cn3nccc3c(-c3cnn([C@]4(CC#N)C[C@@H](C#N)C4)c3)n2)cn1 |  | healthy humans fasted, plasma | 30 mg single dose, geometric mean |  | apparent clearance CL/F | 35.4 L/h |
| C#C[C@]1(CO)O[C@@H](n2cnc3c(N)nc(F)nc32)C[C@@H]1O |  | human, plasma | oral, 30 mg single dose, fed |  | apparent volume of distribution (Vz/F) | 2230 L |
| COC(=O)N[C@@H](C)CNc1nccc(-c2cn(C(C)C)nc2-c2cc(Cl)cc(NS(C)(=O)=O)c2F)n1 |  | human, plasma | oral, 50 mg, with: posaconazole 400 mg twice daily | arithmetic mean | apparent volume Vz/F | 95.6 ± 49.8 L |
| C[C@H](Cn1cnc2c(N)ncnc21)OCP(=O)(O)O | population PK model | human, plasma | oral, dose not given, reduced model estimate |  | apparent volume of distribution | 2330 L |
| CNC(=O)c1c(C)oc2cc(Oc3ncnc4cc(OC)c(OC)cc34)ccc12 | population PK base model | human | oral, dose not given |  | apparent volume of distribution | 50.7 L |
| O=C(NO)c1ccc(CN(c2cnccn2)c2cnccn2)cc1 |  | human patients, phase I, plasma | oral, sampling up to 12 h |  | apparent elimination half-life | 1.6 to 4.9 h |
| NC[C@@]1(CC(=O)O)[C@@H]2CC[C@H]3C[C@@H]2[C@@H]1C3 |  | human, severe renal impairment, plasma | oral, 20 mg single dose, geometric mean |  | apparent clearance | 3 L/h |
| O=C(Nc1nc2cccc(-c3ccc(CN4CCS(=O)(=O)CC4)cc3)n2n1)C1CC1 | population PK SIR median | human | oral, dose not given |  | apparent central volume | 105 L |
| Cc1nc(Nc2ncc(C(=O)Nc3c(C)cccc3Cl)s2)cc(N2CCN(CCO)CC2)n1 |  | human patients, plasma | 65 mg/m^2, day 42 |  | apparent oral clearance | 4020 ± 2980 mL/min/m² |
| C=CC(=O)NC1CCN(c2ncc3ncnc(Nc4ccc(Oc5ccc6c(c5)ncn6C)c(C)c4)c3n2)CC1 |  | human | oral, 60 mg single dose, geometric mean, with: carbamazepine |  | apparent oral clearance | 415 mL/min |
| CC(=O)N(C)[C@H]1CCN(C(=O)c2cnc3c(c2)C[C@](C)(c2ccc(F)cc2)N3)C1 |  | healthy male human, plasma | oral, 15 mg once daily, steady state, geometric mean |  | apparent oral clearance | 320 mL/min |
| Cn1cncc1-c1c(F)cncc1NC(=O)c1c(N)nn2cc(F)cnc12 |  | human patients, plasma | oral, 90 mg |  | apparent clearance | 49.1 L/h |
| CN(CC#N)C(=O)C[C@H](Nc1nc2ccccc2[nH]1)c1cccc(C(F)(F)F)c1 |  | human | intravenous infusion, 1.5 mg/kg, 1 mg/mL formulation |  | apparent clearance | 13.6 ± 2.54 L/h |
| C[C@@H](Oc1ccc(S(C)(=O)=O)cc1C(=O)N1C[C@@H]2C[C@]2(c2cc(C(F)(F)F)on2)C1)C(F)(F)F |  | young healthy humans, plasma | oral, 25 mg once daily, multiple dosing |  | apparent clearance at steady state | 76.6 mL/min |
| CCCCCCCCCCCCCCCC(=O)N[C@@H](CCC(=O)NCCCC[C@@H]1NC(=O)[C@H]([C@@H](C)CC)NC(=O)[C@@H](NC(=O)[C@@H]2CCCN2C(=O)[C@H](Cc2ccccc2)NC(=O)[C@H](Cc2c[nH]cn2)NC(=O)[C@@H](NC(=O)[C@H](CC(=O)O)NC(=O)CC(C)C)[C@@H](C)O)CSSC[C@@H](C(=O)N[C@@H](CCCCN)C(N)=O)NC(=O)CNC(=O)[C@H](CCCCN)NC(=O)[C@H](CO)NC(=O)[C@H](CCCNC(=N)N)NC(=O)[C@@H]2CCCN2C(=O)[C@H](CCC(=O)O)NC(=O)[C@H](Cc2ccccc2)NC1=O)C(=O)O |  | healthy human, plasma | subcutaneous, 20 mg, single dose, aqueous formulation |  | apparent clearance CL/F | 1.54 ± 0.508 L/h |
| NC1(C(=O)N[C@@H](CCO)c2ccc(Cl)cc2)CCN(c2nc[nH]c3nccc2-3)CC1 | population PK model | human | dose not given |  | apparent steady-state volume of distribution | 265 L |
| C[C@@]1(c2cc(NC(=O)c3ccc(C#N)cn3)ccc2F)C=CSC(N)=N1 |  | elderly humans, both sexes, plasma | oral, 3 mg single dose, mean |  | apparent clearance CL/F | 12 L/h |
